Measurements gathered from unrelated publications.
Values joined by “and” are separate records of one study, mostly repeats; a detail may differ. ± gives the spread as reported.

COC1CN([C@H]2CC[C@H]([C@@]3(C)Oc4c(Cl)cc(C(=O)NCc5c(SC)cc(C)[nH]c5=O)c(C)c4O3)CC2)C1  log2 fold change (RNA-seq, refers to: EXTL3 mouse homolog; mouse, HT-1376 xenograft, whole blood; dose not given; reference: vehicle): 0.139
C=CC(=O)Nc1cccc(Cn2ncc3cnc(Nc4cnn(CCOC)c4)nc32)c1  percent of control (CLK3 human; binding, KINOMEscan; 100 nM; lower = stronger binding): 100%
COc1nc(Nc2nc(O)c3ccccc3n2)nc2ccc(C)cc12  EC50 (Mus musculus; gene silencing, high-content imaging; LDR reporter GFP cells; retest, mean of two runs): 12.6 µM
Nc1ncc(-c2cc(-c3cnn(CC(F)(F)F)c3)ncc2F)nc1C(=O)NC1CNCC(F)C1 (stereo not shown)  remaining binding (PLK2; KINOMEscan; 1 µM; reference: DMSO control): 82%
O=C(N/N=C/c1ccc(C[n+]2ccccc2)cc1)c1cccc(C(=O)N/N=C/c2ccc(C[n+]3ccccc3)cc2)c1  ΔTm (hp2 hairpin duplex DNA; FRET melting; 1 µM): -0.2 ± 0.1 °C
CCCCCC(O)/C=C/C=O (stereo not shown)  IC50 (proteome cysteines; IA-probe labelling, competitive isoTOP-ABPP; MDA-MB-231 proteome): 73 µM and 92 µM and 131 µM and 66 µM and 77 µM
Cc1ncsc1-c1ccc(C(C)NC(=O)C2CC(O)CN2C(=O)C(NC(=O)CCCCCCCCCCN2CCCC(Nc3ncc(Cl)c(Nc4ccccc4S(=O)(=O)C(C)C)n3)C2)C(C)(C)C)cc1 (stereo not shown)  log2 fold change (22Rv1; RNA-seq, refers to: SHOX2 mRNA; concentration not given; reference: DMSO): -3.09
O=C(N/N=C/c1cc[n+](CC2CC2)c2ccccc12)c1cccc(C(=O)N/N=C/c2cc[n+](CC3CC3)c3ccccc23)n1  ΔTm (MYC parallel G4 DNA; FRET melting; 1 µM, DNA 0.2 µM): 15.1 ± 0.4 °C
C=CC(=O)N1[C@@H](c2ccc3c(c2)OCO3)c2[nH]c3ccccc3c2C[C@H]1C(=O)N1CCN(C)CC1  relative co-enrichment (human cyclin E1 wild type-3xFLAG:CDK2; co-IP with TMT proteomics, refers to: HNRNPA1; concentration not given, P09651; reference: wild type DMSO): 95%
CN1CCCNC(=O)c2cccc(c2)C(=O)NCCCN(C)CCCNc2cccc3c2C(=O)c2cccc(c2C3=O)NCCC1  log2 fold change (SAS; RNA-seq, refers to: ZFX mRNA; 1 µM, 6 h; reference: untreated cells): 0.505
C[n+]1ccc(/C=N/NC(=O)c2cccc(C(=O)N/N=C/c3cc[n+](C)c4ccccc34)n2)c2ccccc21  ΔTm (hp2 hairpin duplex DNA; FRET melting; 1 µM, added: ds26 10 µM): 0.7 ± 0.3 °C
CCc1nnc(NC(=O)c2cccc(C(=O)Nc3nnc(CC)s3)n2)s1  Emax (Mus musculus; gene silencing, high-content imaging; LDR reporter GFP cells; 30 h, retest, mean of two runs): 34%
C[n+]1ccc(/C=N/NC(=O)c2cncc(C(=O)N/N=C/c3cc[n+](C)c4ccccc34)n2)c2ccccc21  ΔTm (hp2 hairpin duplex DNA; FRET melting; 1 µM): 0.8 ± 0.1 °C
CNS(=O)(=O)Nc1nccc(Cc2c(C)c3ccc(Oc4ncccc4F)cc3oc2=O)c1F  IC50 (SU-DHL-6; cell viability; 7 days): > 1 µM
C[n+]1cccc2cc(/C=N/NC(=O)c3cncc(C(=O)N/N=C/c4ccc5c(ccc[n+]5C)c4)n3)ccc21  ΔTm (hp2 hairpin duplex DNA; FRET melting; 1 µM, added: ds26 10 µM): 0.9 °C
COC1OC(C)C(O)C(OC2OC(C)C(O)C(OC3OC(C)C(O)C(OC4OC(C)C(O)C(OS(=O)(=O)O)C4OS(=O)(=O)O)C3OS(=O)(=O)O)C2OS(=O)(=O)O)C1OS(=O)(=O)O (stereo not shown)  prothrombin time prolongation (human plasma; 128 µg/mL; reference: control): 0.98 fold

Repeated from above:
C=CC(=O)Nc1cccc(Cn2ncc3cnc(Nc4cnn(CCOC)c4)nc32)c1  percent of control (CLK3 human; binding, KINOMEscan; 100 nM; lower = stronger binding): 100%
CCc1nnc(NC(=O)c2cccc(C(=O)Nc3nnc(CC)s3)n2)s1  Emax (Mus musculus; gene silencing, high-content imaging; LDR reporter GFP cells; 30 h, retest, mean of two runs): 34%
COc1nc(Nc2nc(O)c3ccccc3n2)nc2ccc(C)cc12  EC50 (Mus musculus; gene silencing, high-content imaging; LDR reporter GFP cells; retest, mean of two runs): 12.6 µM
